Published values collected from several papers.
A part holds a random share of what one study measured.

Study 1
Target: Interferon regulatory factor 5, full length, phosphomimetic (IRF5, Homo sapiens, UniProt Q13568-2, residues 1-514, S451D/S453D/S456D/S462D)
Method: protein-binding microarray
Form: double-stranded DNA, one strand shown
Sample: in vitro
Concentration: 940 nM top
Setting: 60-bp whole probe
Added: salmon DNA 0.4 mg/ml
Baseline: random background probes
Direction: higher = stronger binding
Shared flanks, not repeated: GCCTAGCAC … GTCTTGATTCGCTTGACGCTGCTG
Strand | fitted relative affinity [z-score]
GTTTCATTCCTGATCTCTGGGTGCTAG | 3.69
TTAGATTTTGGGACTGGATTAGTGCTA | -0.165
GACGGTTTCGTGTTTCGGGACGTGCTA | 6.01
GACGGTATCGACTATCAGGACGTGCTA | 4.37
TCACTTCTGGATCTCAGACTGTGCTAG | 0.4
GACGATTTGAGTTCCGAGACGTGCTAG | 0.0967
TTAGGTTTGGGTCTCGGTTAGTGCTAG | 2.12
TTAGGTTCCGTTTTCCTTTAGTGCTAG | 1.95

Study 2
Target: Replicase polyprotein 1ab, main protease (rep, Severe acute respiratory syndrome coronavirus 2, UniProt P0DTD1)
Observed: enzyme activity
Action: inhibitor
Concentration: 20 µM
Setting: hit confirmation
Compound | inhibition [%]
CCC[C@H](NC(=O)/C(C#N)=C/c1cccc(Br)n1)c1ccccc1 | 59.4
CN(C)[C@@H]1C(=O)C(C(N)=O)C(=O)[C@@]2(O)C(=O)C3C(=O)c4c(O)cccc4[C@@](C)(O)[C@H]3[C@H](O)[C@@H]12 (some centres unmarked) | 33.6
O=C1C(Cl)=C(N2CCOCC2)C(=O)N1c1ccc(Cl)c(Cl)c1 | 100

Study 3
Target: Histone acetyltransferase KAT6A, winged helix 1, GST fusion (KAT6A, Homo sapiens, UniProt Q92794, residues 1-85)
Method: protein binding microarray
Form: double-stranded DNA, one strand shown
Sample: in vitro
Concentration: not given
Setting: 8-mer, flanks averaged, mean of 2 arrays, mostly near background
Baseline: not given
Direction: higher = stronger binding
Target sequence (chain): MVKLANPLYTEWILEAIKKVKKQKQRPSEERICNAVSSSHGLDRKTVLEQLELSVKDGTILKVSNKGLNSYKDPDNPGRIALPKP
Strand | E-score
CGTACGTC | 0.0677
GAGTCCGC | 0.265
TAAAGCTA | -0.102
GGAGTGTA | 0.109
CACGCTTC | 0.172
CGCTAGGC | 0.199
ACTTAGTC | 0.0619
AAGAAGGG | -0.216

Study 4
Cell line: HEK-293T/ACE2
Observed: pseudovirus infection
Organism: VSV pseudotyped with SARS-CoV-2 spike
Concentration: 10 µM
Time: 16 h
Baseline: vehicle-treated
SMILES | GFP-positive cells
O=NN(CCCl)C(=O)NC1CCCCC1 | 66.4%
COc1ccc(OC)c(C(O)CNC(=O)CN)c1 (centres unmarked) | 65.2%
Cc1ccnc2c1NC(=O)c1cccnc1N2C1CC1 | 66.4%
CC1=C(/C=C/C(C)=C/C=C/C(C)=C/C=C/C=C(C)/C=C/C=C(C)/C=C/C2=C(C)CCCC2(C)C)C(C)(C)CCC1 | 84.6%

Study 5
Target: Replicase polyprotein 1ab, nsp13 helicase (rep, Severe acute respiratory syndrome coronavirus 2, UniProt P0DTD1)
Action: inhibitor
Concentration: 20 µM
Compound | inhibition [%]
CN1C(=O)C(F)=C[C@]2(C)[C@H]3CC[C@]4(C)[C@@H](C(=O)NCc5nc6cccnc6[nH]5)CC[C@H]4[C@@H]3CC[C@@H]12 | 4.96
COc1cc(O)c2c(c1)C(=O)c1cc(C)cc(O)c1C2=O | 38.4
NCCCC[C@H](NC(=O)[C@@H]1CCCN1C(=O)[C@@H]1CSSC[C@H](N)C(=O)N[C@@H](Cc2ccc(O)cc2)C(=O)N[C@@H](Cc2ccccc2)C(=O)N[C@@H](CCC(N)=O)C(=O)N[C@@H](CC(N)=O)C(=O)N1)C(=O)NCC(N)=O | -2.71
COc1[nH]c2ccc(F)cc2c1C(=O)OCC1CCN(CCNS(C)(=O)=O)CC1 | 2.95
O=C1OCCN1/N=C/c1ccc([N+](=O)[O-])o1 | 8.21
O=C(Nc1ccccc1)N[C@@H]1C[C@@H](C(=O)O)Nc2cc(Cl)cc(Cl)c21 | 3.98
Cc1ccc(C(=O)c2ccc(CC(=O)O)n2C)cc1 | 5.89
NS(=O)(=O)NCc1csc2ccccc12 | -1.54
CCNC1=Nc2ccc(Cl)cc2C(C)(c2ccccc2)O1 (centres unmarked) | 0.97
COCCOc1ccc(N2CCN(CCn3ncc4c3nc(N)n3nc(-c5ccco5)nc43)CC2)cc1 | 1.51
C[C@]1(O)C[C@@H](c2nc(-c3ccc4ccc(-c5ccccc5)nc4c3)c3c(N)nccn32)C1 | 7.99
CC[C@H](/C=C/[C@@H](C)[C@H]1CC[C@H]2[C@@H]3CC=C4C[C@@H](O)CC[C@]4(C)[C@H]3CC[C@]12C)C(C)C | 0.42
NC(=O)N1c2ccccc2C=Cc2ccccc21 | 5.56
COc1cc2ncn(-c3cc(OCc4ccccc4C(F)(F)F)c(C(N)=O)s3)c2cc1OC | 3.06
C[C@H](NCc1ccc(OCc2ccccc2F)cc1)C(N)=O | 2.45
C[C@@H]1CCCN1CCc1cc2cc(-c3ccc(C#N)cc3)ccc2o1 | 4.57
CC(=C(CCOC(=O)C(C)C)SSC(CCOC(=O)C(C)C)=C(C)N(C=O)Cc1cnc(C)nc1N)N(C=O)Cc1cnc(C)nc1N (stereo in doubt) | 4.18
OCCN(CCO)c1nc(N2CCCCC2)c2nc(N(CCO)CCO)nc(N3CCCCC3)c2n1 | 2.66
CC(C)c1ccccc1S(=O)(=O)c1cc(N)c2ncccc2c1[N+](=O)[O-] | 3.03
CNC(=O)c1cnn(-c2nc(N)c3ncn([C@@H]4O[C@H](CO)[C@@H](O)[C@H]4O)c3n2)c1 | -4.17
C[C@@]1(c2cc(-c3cncnc3)c(F)cc2F)CCSC(N)=N1 | -3.78

Repeated from above (study 3):
Strand | E-score
CGCTAGGC | 0.199
ACTTAGTC | 0.0619
